Experimental data collected from several papers.
Parts stem from different laboratories: compare values within a part only.

Study 1
Target: Ras GTPase-activating protein-binding protein 1, C-terminal RGG region (G3BP1, Homo sapiens, UniProt Q13283)
Chain of UniProt Q13283 (whole entry, looked up): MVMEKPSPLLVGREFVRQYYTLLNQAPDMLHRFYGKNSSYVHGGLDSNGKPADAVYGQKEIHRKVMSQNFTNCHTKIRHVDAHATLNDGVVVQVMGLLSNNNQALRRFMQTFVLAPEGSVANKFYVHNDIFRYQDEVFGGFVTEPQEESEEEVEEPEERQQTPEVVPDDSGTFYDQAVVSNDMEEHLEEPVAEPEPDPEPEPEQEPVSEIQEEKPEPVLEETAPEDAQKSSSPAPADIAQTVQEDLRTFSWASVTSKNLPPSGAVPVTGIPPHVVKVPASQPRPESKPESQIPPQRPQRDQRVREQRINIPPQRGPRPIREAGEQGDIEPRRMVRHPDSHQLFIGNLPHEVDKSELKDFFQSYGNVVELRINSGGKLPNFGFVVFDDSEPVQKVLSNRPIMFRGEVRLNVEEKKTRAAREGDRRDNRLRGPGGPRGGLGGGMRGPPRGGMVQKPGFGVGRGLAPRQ
Technique: RNA Bind-n-Seq
Form: RNA
Matrix: in vitro
Tested at: 1 µM
Setting: whole 134-nt RNA, ends assumed
Added: 150 mM KCl
Relative to: input library
Reading: higher = stronger binding
With `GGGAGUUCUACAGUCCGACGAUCCACAGACAACACGCACCCACACAGACACAGAGGGAAGGGGUUGGGAUGGGGACAGGGUGCAAAACAGGGCGGGGUAGGACCCCAGCCCCUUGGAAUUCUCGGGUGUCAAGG` the log2 enrichment was -0.267.
`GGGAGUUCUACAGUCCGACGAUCCAAGUCCUGUGCUACACAUCGUAUGUACCGAAUCGGGGUUGGGGUUGGGUUGGGGAAAGUAUUAUGUUACGCCGUUCGGAUCUGCACUUCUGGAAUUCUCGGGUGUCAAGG` gave a log2 enrichment of 2.72.
With `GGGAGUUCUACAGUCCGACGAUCAAGUCCUGUGCUACACAUCGUAUGUACCGAAUCGGGGAAAGGGGAAAGGGGAGGGGAAAGUAUUAUGUUACGCCGUUCGGAUCUGCACUUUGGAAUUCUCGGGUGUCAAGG` the log2 enrichment was 3.26.
`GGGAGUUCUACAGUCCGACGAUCUGCUGCGGAAGGGCUCUGGCACUCUGUGUGAGGCCUUGCUGAUGGUGCAGGCCUUCCACGCCAACAUCAUCUUCCCCAACAAGCAAGAGCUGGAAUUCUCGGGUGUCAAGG` has a log2 enrichment of -0.734.
With `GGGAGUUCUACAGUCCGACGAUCUUUUAGAAAGAGAAGGGGAAGAAAAUGAAGCCUUACAUAAGAUGAUUGCAAACGAGCAAAAGACUUCUCUCCCAAAUUUGUUCCAGGAUAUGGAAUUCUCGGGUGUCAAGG` the log2 enrichment was -2.05.

Study 2
Target: Interferon regulatory factor 7, full length, phosphomimetic (IRF7, Homo sapiens, UniProt Q92985, residues 1-503, S471D/S472D/S475D/S476D/S477D/S483D/S484D/S487D)
Chain of UniProt Q92985 (whole entry, unmodified, looked up): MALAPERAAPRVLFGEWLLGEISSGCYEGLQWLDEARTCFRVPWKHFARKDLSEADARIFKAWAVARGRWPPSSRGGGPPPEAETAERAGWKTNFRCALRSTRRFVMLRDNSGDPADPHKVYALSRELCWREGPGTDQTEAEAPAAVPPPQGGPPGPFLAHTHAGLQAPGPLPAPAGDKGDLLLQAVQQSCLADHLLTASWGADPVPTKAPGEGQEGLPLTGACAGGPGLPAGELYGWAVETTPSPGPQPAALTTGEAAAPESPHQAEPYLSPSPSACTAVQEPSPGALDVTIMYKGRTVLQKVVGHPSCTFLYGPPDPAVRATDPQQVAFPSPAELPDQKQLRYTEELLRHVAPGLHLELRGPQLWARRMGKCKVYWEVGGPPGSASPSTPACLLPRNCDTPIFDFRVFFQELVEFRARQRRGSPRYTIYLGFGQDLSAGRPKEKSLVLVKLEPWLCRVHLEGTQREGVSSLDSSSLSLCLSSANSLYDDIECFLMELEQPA
Technique: protein-binding microarray
Form: double-stranded DNA, one strand shown
Matrix: in vitro
Tested at: 2200 nM top
Setting: 60-bp whole probe
Added: salmon DNA 0.4 mg/ml
Relative to: random background probes
Reading: higher = stronger binding
Shared flanks, not repeated: GCCTAGCAC … GTCTTGATTCGCTTGACGCTGCTG
`GACGATCCCAGTCTCGAGACGTGCTAG` — result for “fitted relative affinity”: 0.565 z-score.
`TCAGTTACGGAATTTCCCACTGTGCTA`: “fitted relative affinity” 1.34 z-score.
Under “fitted relative affinity”, `GACGGTTACGACACTGGGGACGTGCTA` is recorded as -0.398 z-score.
Under “fitted relative affinity”, `GACGATTTCAATATCGAGACGTGCTAG` is recorded as 0.452 z-score.
`GACGATAGCAGTTTCGAGACGTGCTAG` — result for “fitted relative affinity”: 2.84 z-score.
For `GACGGTATCGCGTATCGGGACGTGCTA`, “fitted relative affinity” read 0.4 z-score.
Under “fitted relative affinity”, `GACGGACTGGGGCCTGGGGACGTGCTA` is recorded as -1.07 z-score.
Under “fitted relative affinity”, `TCATGCTTTCCTTTATGACTGTGCTAG` is recorded as 2.34 z-score.
Under “fitted relative affinity”, `TAATATATATATTGTTAGTGTGTGCTA` is recorded as 0.0652 z-score.
`TTAGGTCTCGCACTGGGTTAGTGCTAG` — result for “fitted relative affinity”: 0.272 z-score.
`AGGTTCTACTCCGTTAGTTGGTGCTAG` — result for “fitted relative affinity”: 1.27 z-score.
`TCACTTCTTGAACTCTTACTGTGCTAG` — result for “fitted relative affinity”: 1.82 z-score.

Study 3
Target: Sox, HMG box (Pigoraptor chileana)
Technique: Spec-seq
Form: double-stranded DNA, one strand shown
Matrix: in vitro
Tested at: not given
Setting: whole probe, mean of replicates
Relative to: not given
Reading: lower = stronger binding
Shared flanks, not repeated: GAGTCGTCTCGTCAGCAC … CCGTAGAGCACTCAGGTC
Residues (chain): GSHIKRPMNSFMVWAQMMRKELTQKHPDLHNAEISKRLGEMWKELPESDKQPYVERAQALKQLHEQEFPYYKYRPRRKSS
`CGGCGTT` — result for “relative binding energy”: 1.65 ln ratio.
For `CATGCCC`, “relative binding energy” read 0.92 ln ratio.
Under “relative binding energy”, `GTGGGTT` is recorded as 1.21 ln ratio.
For `AATAGTT`, “relative binding energy” read -2.43 ln ratio.
Under “relative binding energy”, `CATATAT` is recorded as -0.0415 ln ratio.
Under “relative binding energy”, `AATTGTT` is recorded as -3.27 ln ratio.
Under “relative binding energy”, `CATCTCA` is recorded as 0.316 ln ratio.
For `AAGTGTT`, “relative binding energy” read -1.75 ln ratio.
Under “relative binding energy”, `ATAAGTT` is recorded as -0.511 ln ratio.
Under “relative binding energy”, `CATTCGC` is recorded as 0.735 ln ratio.

Single results of other studies
`PhoQ, residues 284 288 289 292 302 303 NLMGRA` gave a fold induction of 16.6 (PhoP, residues 12 14 15 18 19 IQFRS (Escherichia coli, UniProt P23836); Sort-seq, measured: YFP reporter; E. coli; PhoQ-PhoP variant library, added: 10 µM Mg2+; relative to: high Mg2+ state, higher = stronger signaling).

A few entries again (study 2):
For `GACGGTATCGCGTATCGGGACGTGCTA`, “fitted relative affinity” read 0.4 z-score.
Under “fitted relative affinity”, `GACGGACTGGGGCCTGGGGACGTGCTA` is recorded as -1.07 z-score.
Under “fitted relative affinity”, `TCATGCTTTCCTTTATGACTGTGCTAG` is recorded as 2.34 z-score.
Under “fitted relative affinity”, `TAATATATATATTGTTAGTGTGTGCTA` is recorded as 0.0652 z-score.
`TTAGGTCTCGCACTGGGTTAGTGCTAG` — result for “fitted relative affinity”: 0.272 z-score.
